Measured values of several laboratories.
“And” joins repeats or separate records; there may be more than shown. ± gives the spread as reported. In brackets after ≈: the same amount, converted by molar mass.

Structure (SMILES) | target or system | assay | system | setting | how to read | quantity | value
Cc1oc2nc1C(=O)N[C@](C)(C(=O)NCCc1ccccc1)c1nc(c(C)o1)C(=O)N[C@](C)(C(=O)NCCc1ccccc1)c1nc(c(C)o1)C(=O)N[C@]2(C)C(=O)NCCc1ccccc1 | SARS-CoV-2 | virucidal activity | Vero E6, NRC-03-nhCoV | 20 µM | – | inhibition | ≤ 90%
CC(C)CC(C(=O)N1CC2(CC1C#N)C(=O)Nc1ccccc12)N(C)C(=O)c1cc2c(F)cc(F)c(F)c2[nH]1 (stereo not shown) | SARS-CoV-2 | viral replication | Vero E6 | 0.0005 µM | – | inhibition | 0.61% and 0% and 1.32%
Cc1cc(/C=C/C#N)cc(C)c1Nc1nc(Nc2ccc(C#N)cc2)ncc1N | HIV-1 | viral replication, single-round infection | RT mutant P236L | – | – | EC50 | 0.2 ± 0.06 nM
CCCCCCCCCCCCCCCC(=O)N[C@@H](CCC(=O)NCCOCCOCCC(=O)NCCOCCOCCC(=O)NCCCC[C@H](NC(=O)[C@H](CC(=O)O)NC(=O)[C@H](CC(C)C)NC(=O)[C@H](Cc1ccc(O)cc1)NC(=O)[C@H](CCCCN)NC(=O)[C@H](CO)NC(=O)[C@H](Cc1ccc(O)cc1)NC(=O)[C@H](CC(=O)O)NC(=O)[C@H](CO)NC(=O)[C@@H](NC(=O)[C@H](Cc1ccccc1)NC(=O)[C@@H](NC(=O)CNC(=O)[C@H](CCC(N)=O)NC(=O)[C@@H](CO)NC(=O)[C@@H](N)Cc1c[nH]cn1)[C@@H](C)O)[C@@H](C)O)C(=O)N[C@@H](CCCNC(=N)N)C(=O)N[C@@H](CCCNC(=N)N)C(=O)N[C@@H](C)C(=O)N[C@@H](CCC(N)=O)C(=O)N[C@@H](CC(=O)O)C(=O)N[C@@H](Cc1ccccc1)C(=O)N[C@H](C(=O)N[C@@H](CCC(N)=O)C(=O)N[C@@H](Cc1c[nH]c2ccccc12)C(=O)N[C@@H](CC(C)C)C(=O)N[C@@H](CC(C)C)C(=O)N[C@@H](CC(N)=O)C(=O)N[C@H](C(=O)NCC(=O)NCC(=O)N1CCC[C@H]1C(=O)N[C@@H](CO)C(=O)N[C@@H](CO)C(=O)NCC(=O)N[C@@H](C)C(=O)N1CCC[C@H]1C(=O)N1CCC[C@H]1C(=O)N1CCC[C@H]1C(=O)N[C@@H](CO)C(N)=O)[C@@H](C)O)C(C)C)C(=O)O | – | refers to: ALP | Sprague-Dawley rat, female | subcutaneous, 20 µg/kg once daily, 14 days | – | serum enzyme activity | 69.1 ± 9.3 U/L
CCCC/C=C/C(=O)N[C@@H](Cc1csc2ccccc12)C(=O)N[C@H]1COC(=O)[C@@H]2C[C@@H](C)CN2C(=O)[C@H](C)NC(=O)[C@@H]2CCCCN2C(=O)[C@@H]2CCCN2C1=O | SARS-CoV-2 | – | SB2 | 10 µM | – | viral RNA release reduction | 90%
Cc1cc(/C=C/C#N)cc(C)c1-n1cnc2cnc(Nc3ccc(C#N)cc3)nc21 | HIV-1 | viral replication, single-round infection | RT mutant V106A | – | – | EC50 | 0.6 ± 0.1 nM
CC(C)(C)NC(=O)[C@@H](c1cccnc1)N(C(=O)c1ccco1)c1ccc(C(C)(C)C)cc1 | SARS-CoV-2 | RT-qPCR, refers to: viral RNA | Vero | 10 µM | higher means less virus | Ct value | 25.1 cycles
Cc1ccc(N2CC(N3CCC(C)(O)CC3)C2)cc1C(=O)NC1(c2ccc3c4c(cccc24)C(=O)N3C)CC1 | SARS-CoV-2 | viral replication | Vero C1008, wild type | 0.01715 µM | – | inhibition | 30%
Cc1oc2nc1C(=O)N[C@](C)(C(=O)O)c1nc(c(C)o1)C(=O)N[C@](C)(C(=O)O)c1nc(c(C)o1)C(=O)N[C@]2(C)C(=O)O | SARS-CoV-2 | virucidal activity | Vero E6, NRC-03-nhCoV | 2.5 µM | – | inhibition | 6%
Cc1ccc(N2CCN(C)CC2)cc1C(=O)NC1(c2ccc3c4c(cccc24)CC3)CC1 | SARS-CoV-2 | viral replication | Vero C1008, Omicron BA.5 | 0.005716 µM | – | inhibition | 0%
Cc1oc2nc1C(=O)N[C@](C)(C(=O)OC(C)C)c1nc(c(C)o1)C(=O)N[C@](C)(C(=O)OC(C)C)c1nc(c(C)o1)C(=O)N[C@]2(C)C(=O)OC(C)C | SARS-CoV-2 | virucidal activity | Vero E6, NRC-03-nhCoV | 10 µM | – | inhibition | 18%
Cc1ccc(N2CC(N3CCC(C)(O)CC3)C2)cc1C(=O)NC1(c2ccc3c4c(cccc24)CC3)CC1 | SARS-CoV-2 | viral replication | Vero C1008, wild type | 0.1543 µM | – | inhibition | 10%
CC[C@H](C)[C@H](NC(=O)[C@H](CCCCN)NC(=O)[C@H](CCCCN)NC(=O)[C@H](CC(C)C)NC(=O)[C@H](Cc1c[nH]c2ccccc12)NC(=O)CN)C(=O)NCC(=O)N[C@@H](CCCCN)C(=O)N[C@@H](CCCCN)C(=O)N[C@H](C(=O)N[C@@H](CCC(=O)O)C(=O)N[C@@H](CCCNC(=N)N)C(=O)N[C@H](C(=O)NCC(=O)N[C@@H](CCC(N)=O)C(=O)N[C@@H](Cc1c[nH]cn1)C(=O)N[C@H](C(=O)N[C@@H](CCCNC(=N)N)C(=O)N[C@@H](CC(=O)O)C(=O)N[C@@H](C)C(=O)N[C@H](C(=O)N[C@H](C(=O)N[C@@H](CCC(N)=O)C(=O)N[C@H](C(=O)N[C@H](C(=O)NCC(=O)N[C@H](C(=O)N[C@@H](C)C(=O)N[C@@H](CCC(N)=O)C(=O)N[C@@H](CCC(N)=O)C(=O)N[C@@H](C)C(=O)N[C@@H](C)C(=O)N[C@@H](CC(N)=O)C(=O)N[C@H](C(=O)N[C@@H](C)C(=O)N[C@@H](C)C(=O)N[C@H](C(=O)N[C@@H](CC(C)C)C(=O)N[C@@H](CCCCN)C(N)=O)[C@@H](C)O)C(C)C)C(C)C)[C@@H](C)CC)[C@@H](C)O)[C@@H](C)CC)[C@@H](C)O)[C@@H](C)O)C(C)C)[C@@H](C)CC | Escherichia coli | broth microdilution | RKI 131/03, CAMHB with 10% mouse serum | 150 mM NaCl | – | MIC | 2 µg/mL (≈ 0.476 µM)

Repeated from above:
Structure (SMILES) | target or system | assay | system | setting | how to read | quantity | value
Cc1ccc(N2CCN(C)CC2)cc1C(=O)NC1(c2ccc3c4c(cccc24)CC3)CC1 | SARS-CoV-2 | viral replication | Vero C1008, Omicron BA.5 | 0.005716 µM | – | inhibition | 0%
